Measurements from different studies.
Compare with care: the assays were run in different laboratories. ± gives the spread as reported. Where no end group is shown, it is not given here. [ ]: non-standard residue; d: D form.

The Km of CNCc1ccc(-c2[nH]c3cc(F)cc4c3c2CCNC4=O)cc1 is reported as 8.4 ± 1.2 µM (SW-620; cellular uptake; 30 min).
The therapeutic window of Cn1c(=O)c(F)c(Nc2ccc(I)cc2F)c2c(=O)n(C[C@@H](O)CO)cnc21 is reported as 1.69 (NIH3T3 in SKOV/NIH microtissues; fibroblast toxicity; 168 h, chronic toxicity, unit not given; reference: AC50 ATP over AC50 NanoLUC, day 7).
With C/C(=N\N=c1/[nH]c(C)cs1)c1ccccn1 the inhibition was 70.8% (HEp-2; cell growth or viability, SRB; 100 µg/mL, 48 h).
`[dL]VIA (D-Leu1)` has a cell viability of 70% (PC-12; protection from Aβ1–42 toxicity, MTT; concentration not given, 6 h, Aβ to peptide ratio 1:1, together with: Aβ1–42 2 µM; reference: untreated cells).
For COc1cc(OC)cc(-c2n[nH]nc2-c2cc3ccccc3s2)c1, the GI50 was < 100 nM (Hs-578T; cell growth or viability; 48 h).
`V[dI]IA (D-Ile2)` gave a cell viability of 76% (PC-12; protection from Aβ1–42 toxicity, MTT; concentration not given, 6 h, Aβ to peptide ratio 1:1, together with: Aβ1–42 2 µM; reference: untreated cells).
For C=CC(=O)Nc1cc2c(Nc3ccc(F)c(Cl)c3)ncnc2cc1C#CC(C)(C)N1CCN(C)CC1, the therapeutic window was 6.03 (NIH3T3 in HEY/NIH microtissues; fibroblast toxicity; chronic toxicity, unit not given; reference: AC50 ATP over AC50 NanoLUC, day 7).
For Cc1ccc(-n2c(SCC(=O)NNC(=O)Nc3ccccc3)nc3ccccc3c2=O)cc1, “early apoptotic cells” read 26.3% (HCT-116; annexin V-FITC/PI flow cytometry; concentration not given, 24 h).
For N#CC(=C(/N)Sc1ccccc1N)/C(C#N)=C(/N)Sc1ccccc1N, the firing duration was 3.2 ± 0.8 min (rat lamina I NK1R neurons; spinal cord slices; concentration not given, together with: substance P).
Cc1ccc(/C=C/[C@]2(O)CC[C@H]3[C@@H]4CCc5cc(O)ccc5[C@H]4CC[C@@]32C)cc1: “relative stimulatory activity” 5.5 ± 0.7% (Ishikawa; alkaline phosphatase induction, agonist; concentration not given, 3 d; reference: estradiol).
C#C[C@@]1(O)[C@@H](CO)O[C@@H](n2cc(Cl)c3c(N)ncnc32)[C@@H]1O gave a GI50 of 10 to 20 nM (U-251; cell growth or viability, SRB; 48 h).
CCCc1nn(C)c2c(=O)[nH]c(-c3cc(S(=O)(=O)N4CCN(C)CC4)ccc3OCC)nc12: active force “increased” (hiPSC-derived 3D engineered cardiac tissue; contractility; serum-free medium; concentration not given, 15 min, paced at 1 Hz; reference: time-matched vehicle).
N[C@@H](Cc1cc(I)c(Oc2ccc(O)c(I)c2)c(I)c1)C(=O)O: mRNA level “increased” (iPSC-derived intestinal progenitor cells; measured: ISX; concentration not given; reference: DMSO).
`TCVCGS` has an adherent cells of 10% (B16-F10; peptide; 2 µg coated per well, 30 to 60 min; reference: thrombospondin-coated wells).
Under growth-promoting activity, `AKHRERMSQVM` is recorded as “active” (A-1 fibroblasts; cell number increase; peptide; concentration not given, 3 d, 10% FCS; reference: basal increase).
The cell viability of `VV[dV]A (D-Val3)` is reported as 70% (PC-12; protection from Aβ1–42 toxicity, MTT; concentration not given, 6 h, Aβ to peptide ratio 1:1, together with: Aβ1–42 2 µM; reference: untreated cells).
The inhibition of Cc1cccc(C=NNc2nc(-c3ccc(C#N)cc3)cs2)c1O is reported as 5 to 50% (HCT-116; colony formation; 5 µM, 24 h).
For O=CCc1ccccc1, “intracellular level ratio” read 2 fold (PC6-3; tyrosine hydroxylase inhibition, HPLC; reference: DOPAL).
Cc1ccc(C(=O)Nc2ccc(CN3CCN(C)CC3)c(C(F)(F)F)c2)cc1C#Cc1cnc2cccnn12 has a GI50 of ~2.79 nM (K562 K562-T315I; 48 h).
The inhibition of C/C(=N\N=C1/NC(=O)/C(=C\c2ccc(Cl)cc2)S1)c1ccccn1 is reported as 73.7% (HEp-2; cell growth or viability, SRB; 100 µg/mL, 48 h).
For N[C@@H]1[C@H]2CN(c3nc4c(cc3F)c(=O)c(C(=O)O)cn4-c3ccc(F)cc3F)C[C@@H]12, the VEGF-A165b/VEGF-A165a ratio was 2.48 (human podocytes; RT-PCR or Western blot, measured: VEGF-A165b and VEGF-A165a; normal glucose; 10 µM, 48 h).
N=C(N)c1ccc(/N=N/Nc2ccc(C(=N)N)cc2)cc1 — result for “action potential firing frequency”: “no effect” (mouse cultured hippocampal neurons; current clamp; 10 µM, together with: current injection).
With CCn1c(C)c(/N=N/c2ccc(C)cc2)s/c1=N/N=C(\C)c1ccccn1 the inhibition was 61.2% (HEp-2; cell growth or viability, SRB; 100 µg/mL, 48 h).
With c1cncc(CN2CCC(n3ncc4c(N5CCOCC5)nc(-c5ccc6[nH]ccc6c5)nc43)CC2)c1 the therapeutic window was 3.49 (NIH3T3 in HEY/NIH microtissues; fibroblast toxicity; chronic toxicity, unit not given; reference: AC50 ATP over AC50 NanoLUC, day 7).
For `VV[dL]A (D-Leu3)`, the cell viability was 73% (PC-12; protection from Aβ1–42 toxicity, MTT; concentration not given, 6 h, Aβ to peptide ratio 1:10, together with: Aβ1–42 2 µM; reference: untreated cells).
With CC[C@H](C)[C@H](NC(=O)[C@@H](NC(=O)[C@@H](N)C(C)C)C(C)C)C(=O)N[C@H](C)C(N)=O the viability was 80.2% (PC-12; Aβ42-induced neurotoxicity, inhibitor, MTT; concentration not given, 6 h, 37 °C, peptide to Aβ42 1:2, together with: Aβ42 2 µM; reference: untreated cells).
`CSVTCR` has an adherent cells of 92% (B16-F10; peptide; 2 µg coated per well, 30 to 60 min; reference: thrombospondin-coated wells).
For Cc1cc(C)c(C=NNc2nc(-c3ccc(C#N)cc3)cs2)c(C)c1, the inhibition was 5 to 50% (HCT-116; colony formation; 5 µM, 24 h).
For `VV[dP]A (D-Pro3)`, the cell viability was 76.3% (PC-12; protection from Aβ1–42 toxicity, MTT; concentration not given, 6 h, Aβ to peptide ratio 1:10, together with: Aβ1–42 2 µM; reference: untreated cells).
Under “relative stimulatory activity”, C[C@]12CC[C@@H]3c4ccc(O)cc4CC[C@H]3[C@@H]1CC[C@@]2(O)/C=C/c1ccccc1 is recorded as 9.4% (Ishikawa; alkaline phosphatase induction, agonist; concentration not given, 3 d; reference: estradiol).
For `VV[dF]A (D-Phe3)`, the cell viability was 72.7% (PC-12; protection from Aβ1–42 toxicity, MTT; concentration not given, 6 h, Aβ to peptide ratio 1:10, together with: Aβ1–42 2 µM; reference: untreated cells).
Under active force, Cc1ccc(N(CC2=NCCN2)c2cccc(O)c2)cc1 is recorded as “decreased” (hiPSC-derived 3D engineered cardiac tissue; contractility; serum-free medium; concentration not given, 15 min, paced at 1 Hz; reference: time-matched vehicle).
O=C(O)CN(CC(=O)O)c1ccccc1OCCOc1ccccc1N(CC(=O)O)CC(=O)O: “PACAP-27-induced Ca2+ increase” “inhibited” (NCI-H838; inhibitor, measured: cytosolic Ca2+; 1 µM, together with: PACAP-27 100 nM).
Under mRNA level, Oc1ccc(-c2nc(-c3ccncc3)c(-c3ccc(F)cc3)[nH]2)cc1 is recorded as “increased” (iPSC-derived intestinal progenitor cells; measured: ISX; concentration not given; reference: DMSO).
CC(C)C[C@H](NC(=O)[C@H](CCc1ccccc1)NC(=O)CN1CCOCC1)C(=O)N[C@@H](Cc1ccccc1)C(=O)N[C@@H](CC(C)C)C(=O)[C@@]1(C)CO1 gave a therapeutic window of 10.1 (NIH3T3 in SKOV/NIH microtissues; fibroblast toxicity; 168 h, chronic toxicity, unit not given; reference: AC50 ATP over AC50 NanoLUC, day 7).
`Tumor necrosis factor alpha` gave an apoptotic cells of ~55% (human osteoclast precursors and osteoclasts; immunofluorescence, measured: cleaved caspase-3; 200 ng/mL, 24 h, together with: PTHrP(12-48) 50 nM).
CCCCCCCCCCCCCCCCCCOCC(COP(=O)([O-])OCC[N+](C)(C)C)OC (stereo not drawn) has a GI50 of 16800 nM (four leukaemia cell lines).
With COc1nc(C)cnc1NS(=O)(=O)c1cccnc1-c1ccc(-c2nnco2)cc1 the ROS level was 116 ± 9% (NCI-H838; H2DCF fluorescence, measured: reactive oxygen species; 10 µM, 0.5 h pretreatment, 0.5 h after ET-1, together with: endothelin-1 100 nM; reference: untreated).
CC(C)NCC(O)c1ccc(O)c(O)c1 (stereo not drawn) — result for active force: “increased” (hiPSC-derived 3D engineered cardiac tissue; contractility; serum-free medium; concentration not given, 15 min, paced at 1 Hz; reference: time-matched vehicle).
With Cc1ccc(/C=N/NC(=O)c2ccccc2Oc2ccccc2)o1 the therapeutic window was 0.126 (NIH3T3 in HEY/NIH microtissues; fibroblast toxicity; chronic toxicity, unit not given; reference: AC50 ATP over AC50 NanoLUC, day 7).
`VVI[dA] (D-Ala4)` has a cell viability of 71.2% (PC-12; protection from Aβ1–42 toxicity, MTT; concentration not given, 6 h, Aβ to peptide ratio 1:10, together with: Aβ1–42 2 µM; reference: untreated cells).
With CCn1c(C)cs/c1=N/N=C(\C)c1ccccn1 the inhibition was 70.4% (HEp-2; cell growth or viability, SRB; 100 µg/mL, 48 h).
The VEGF-A165b/VEGF-A165a ratio of CCc1ccc(C=C2SC(=S)NC2=O)cc1 is reported as 4.2 (human podocytes; RT-PCR or Western blot, measured: VEGF-A165b and VEGF-A165a; normal glucose; 10 µM, 48 h).
CC1=C(C(=O)Nc2cc3cn[nH]c3cc2F)C(c2ccc(Cl)cc2F)N=C(c2ccnc(Cl)c2)N1 (stereo not drawn) gave a therapeutic window of 0.473 (NIH3T3 in HEY/NIH microtissues; fibroblast toxicity; chronic toxicity, unit not given; reference: AC50 ATP over AC50 NanoLUC, day 7).
For `V[dV]IA (D-Val2)`, the cell viability was 70% (PC-12; protection from Aβ1–42 toxicity, MTT; concentration not given, 6 h, Aβ to peptide ratio 1:10, together with: Aβ1–42 2 µM; reference: untreated cells).

Repeated from above:
For `V[dV]IA (D-Val2)`, the cell viability was 70% (PC-12; protection from Aβ1–42 toxicity, MTT; concentration not given, 6 h, Aβ to peptide ratio 1:10, together with: Aβ1–42 2 µM; reference: untreated cells).
For `VV[dP]A (D-Pro3)`, the cell viability was 76.3% (PC-12; protection from Aβ1–42 toxicity, MTT; concentration not given, 6 h, Aβ to peptide ratio 1:10, together with: Aβ1–42 2 µM; reference: untreated cells).
The Km of CNCc1ccc(-c2[nH]c3cc(F)cc4c3c2CCNC4=O)cc1 is reported as 8.4 ± 1.2 µM (SW-620; cellular uptake; 30 min).
Under growth-promoting activity, `AKHRERMSQVM` is recorded as “active” (A-1 fibroblasts; cell number increase; peptide; concentration not given, 3 d, 10% FCS; reference: basal increase).
With c1cncc(CN2CCC(n3ncc4c(N5CCOCC5)nc(-c5ccc6[nH]ccc6c5)nc43)CC2)c1 the therapeutic window was 3.49 (NIH3T3 in HEY/NIH microtissues; fibroblast toxicity; chronic toxicity, unit not given; reference: AC50 ATP over AC50 NanoLUC, day 7).
